Measured values of several laboratories.
Every numbered part comes from another study and shows a few of its results, in no order. Values joined by “and” are separate records of one study, mostly repeats; a detail may differ. ± marks the error that the study gave.
UniProt O75716, sequence (whole entry, looked up): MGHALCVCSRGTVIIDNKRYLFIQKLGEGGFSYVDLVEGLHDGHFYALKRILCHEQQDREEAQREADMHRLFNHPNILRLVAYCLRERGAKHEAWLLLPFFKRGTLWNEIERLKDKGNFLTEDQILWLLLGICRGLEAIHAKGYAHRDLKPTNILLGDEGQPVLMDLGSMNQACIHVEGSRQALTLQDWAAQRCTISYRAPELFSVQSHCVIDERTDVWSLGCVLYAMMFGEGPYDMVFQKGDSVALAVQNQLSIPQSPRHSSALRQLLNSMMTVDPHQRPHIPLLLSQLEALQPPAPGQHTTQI
UniProt Q9H930, sequence (whole entry, looked up): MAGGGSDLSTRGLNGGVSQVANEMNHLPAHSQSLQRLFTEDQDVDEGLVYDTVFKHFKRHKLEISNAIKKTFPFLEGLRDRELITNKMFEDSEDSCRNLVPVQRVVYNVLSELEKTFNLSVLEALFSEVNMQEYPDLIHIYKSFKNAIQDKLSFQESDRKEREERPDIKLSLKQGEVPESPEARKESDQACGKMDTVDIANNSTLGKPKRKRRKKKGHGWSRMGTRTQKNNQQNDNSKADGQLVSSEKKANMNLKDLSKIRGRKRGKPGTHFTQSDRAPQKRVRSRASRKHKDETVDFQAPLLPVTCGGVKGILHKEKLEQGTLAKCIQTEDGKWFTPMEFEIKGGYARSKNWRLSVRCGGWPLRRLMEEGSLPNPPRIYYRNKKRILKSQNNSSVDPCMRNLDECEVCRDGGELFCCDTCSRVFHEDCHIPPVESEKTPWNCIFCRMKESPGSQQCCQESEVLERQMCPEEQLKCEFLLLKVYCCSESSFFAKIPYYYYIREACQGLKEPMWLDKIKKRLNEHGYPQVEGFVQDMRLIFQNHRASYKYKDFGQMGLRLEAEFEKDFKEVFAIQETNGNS
UniProt Q00537, sequence (whole entry, looked up): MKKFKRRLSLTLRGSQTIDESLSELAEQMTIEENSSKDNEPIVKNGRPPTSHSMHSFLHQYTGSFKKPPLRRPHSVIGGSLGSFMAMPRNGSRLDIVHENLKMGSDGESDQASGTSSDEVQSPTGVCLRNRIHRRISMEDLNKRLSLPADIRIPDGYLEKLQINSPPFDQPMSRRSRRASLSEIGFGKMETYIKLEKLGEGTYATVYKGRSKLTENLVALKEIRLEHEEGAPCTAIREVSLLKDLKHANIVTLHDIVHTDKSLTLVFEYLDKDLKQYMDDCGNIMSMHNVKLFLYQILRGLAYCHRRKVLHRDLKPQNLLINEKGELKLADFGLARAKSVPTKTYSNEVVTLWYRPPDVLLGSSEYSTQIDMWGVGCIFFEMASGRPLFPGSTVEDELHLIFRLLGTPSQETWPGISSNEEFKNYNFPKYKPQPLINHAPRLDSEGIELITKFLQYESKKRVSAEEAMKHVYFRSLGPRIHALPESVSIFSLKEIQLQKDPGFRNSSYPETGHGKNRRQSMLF

Series 1 — effect on: cell-free assay; technique: competition with immobilised ligand; concentration: 1 µM
Structure (SMILES): O=C(NS(=O)(=O)c1ccc(NCC2CCOCC2)c([N+](=O)[O-])c1)c1ccc(N2CCN(Cc3ccc(C(F)(F)F)cc3-c3ccc(Cl)cc3)CC2)cc1Oc1cnc2[nH]ccc2c1
| target | remaining binding |
| --- | --- |
| Phosphatidylinositol 4,5-bisphosphate 3-kinase catalytic subunit alpha isoform (PIK3CA, Homo sapiens, UniProt P42336, E542K) | 98% |
| Epidermal growth factor receptor (EGFR, Homo sapiens, UniProt P00533, del747-750/T751S) | 88% |
| Cyclin-dependent kinase 17 (CDK17, Homo sapiens, UniProt Q00537) | 100% |
| Bone morphogenetic protein receptor type-2 (BMPR2, Homo sapiens, UniProt Q13873) | 100% |
| Serine/threonine-protein kinase SIK2 (SIK2, Homo sapiens, UniProt Q9H0K1) | 100% |
| Serine/threonine-protein kinase D3 (PRKD3, Homo sapiens, UniProt O94806) | 100% |
| Mitogen-activated protein kinase kinase kinase 6 (MAP3K6, Homo sapiens, UniProt O95382) | 80% |
| Cyclin-dependent kinase 13 (CDK13, Homo sapiens, UniProt Q14004) | 63% |
| Serine/threonine-protein kinase 10 (STK10, Homo sapiens, UniProt O94804) | 100% |
| LIM domain kinase 2 (LIMK2, Homo sapiens, UniProt P53671) | 97% |
| BMP-2-inducible protein kinase (BMP2K, Homo sapiens, UniProt Q9NSY1) | 94% |
| Mitogen-activated protein kinase kinase kinase 1 (MAP3K1, Homo sapiens, UniProt Q13233) | 100% |
| Serine/threonine-protein kinase Nek3 (NEK3, Homo sapiens, UniProt P51956) | 85% |
| Serine/threonine-protein kinase 16 (STK16, Homo sapiens, UniProt O75716) | 91% |
| Receptor-type tyrosine-protein kinase FLT3 (FLT3, Homo sapiens, UniProt P36888, D835H) | 100% |
| Fibroblast growth factor receptor 1 (FGFR1, Homo sapiens, UniProt P11362) | 91% |

Series 2 — effect on: enzyme activity; action: inhibitor; concentration: 0.5 µM; reference: control
Target: BDNF/NT-3 growth factors receptor (NTRK2, Homo sapiens, UniProt Q16620)
UniProt Q16620, sequence (whole entry, looked up): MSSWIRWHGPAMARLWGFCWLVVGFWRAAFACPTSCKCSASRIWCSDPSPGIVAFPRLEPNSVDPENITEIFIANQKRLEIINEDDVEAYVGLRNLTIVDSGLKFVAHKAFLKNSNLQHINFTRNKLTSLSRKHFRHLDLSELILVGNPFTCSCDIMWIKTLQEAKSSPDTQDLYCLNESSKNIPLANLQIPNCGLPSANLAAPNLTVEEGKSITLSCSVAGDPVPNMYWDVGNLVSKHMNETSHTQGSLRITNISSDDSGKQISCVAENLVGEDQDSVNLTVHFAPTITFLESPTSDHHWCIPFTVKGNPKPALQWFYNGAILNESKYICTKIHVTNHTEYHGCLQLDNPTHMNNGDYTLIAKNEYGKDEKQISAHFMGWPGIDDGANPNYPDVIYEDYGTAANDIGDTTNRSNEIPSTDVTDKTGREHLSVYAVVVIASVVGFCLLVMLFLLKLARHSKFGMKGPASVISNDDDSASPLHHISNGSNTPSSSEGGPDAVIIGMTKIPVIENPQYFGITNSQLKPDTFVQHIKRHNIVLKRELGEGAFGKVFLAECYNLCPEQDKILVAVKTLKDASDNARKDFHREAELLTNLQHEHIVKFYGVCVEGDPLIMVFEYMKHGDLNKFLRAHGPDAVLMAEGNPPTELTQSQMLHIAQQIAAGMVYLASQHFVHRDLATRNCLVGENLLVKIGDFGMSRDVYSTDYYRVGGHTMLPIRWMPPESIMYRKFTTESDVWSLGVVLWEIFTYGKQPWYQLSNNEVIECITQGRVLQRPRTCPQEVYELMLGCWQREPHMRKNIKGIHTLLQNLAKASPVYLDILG
| Compound | remaining activity [%] |
| --- | --- |
| Nc1nccc(-c2c(-c3ccc(F)cc3)ncn2C2CCNCC2)n1 | 103 |
| Fc1ccc(-c2nc3n(c2-c2ccncc2)CCS3)cc1 | 103 |
| CC[n+]1c(/C=C/N(C)c2ccccc2)n(-c2ccccc2)c2ccc(-c3nc4ccccc4s3)cc21 | 97.8 |
| COc1cc(Nc2c(C#N)cnc3cc(OCCCN4CCN(C)CC4)c(OC)cc23)c(Cl)cc1Cl | 69.2 |
| O=C1NC(=O)C(c2c[nH]c3ccccc23)=C1c1c[nH]c2ccccc12 | 90.7 |
| CCCC(=O)Oc1ccc2[nH]c(C(=O)c3cc4ccccc4[nH]3)cc2c1 | 89.8 |
| Cc1cc(Nc2nc(-c3ccccc3)nc3ccccc23)n[nH]1 | 4.37 |
| Nc1ncnc2c1cnn2-c1ccccc1 | 88.7 |
| COc1ccc(S(=O)(=O)N(CCO)c2ccccc2CN(C)CC=Cc2ccc(Cl)cc2)cc1 | 104 |
| CSc1nc(-c2ccnc(N[C@@H](C)c3ccccc3)c2)c(-c2ccc(F)cc2)[nH]1 (racemic) | 88.5 |
| N#CC(=C(N)Sc1ccc(N)cc1)c1ccccc1C(F)(F)F | 103 |
| CCc1[nH]c(-c2ccc(OC)cc2)nc1-c1ccncc1 | 105 |
| Oc1ccc(Nc2nc(-c3ccc(Cl)cc3)cs2)cc1 | 107 |
| CC(C)(C)n1nc(Cc2cccc3ccccc23)c2c(N)ncnc21 | 87.2 |
| O=S(=O)(NCCNC/C=C/c1ccc(Br)cc1)c1cccc2cnccc12 | 95.1 |
| Cc1ccc(NC2=CC(=O)c3sc(C)nc3C2=O)cc1 | 100 |
| Nc1nc(Nc2ccc(S(N)(=O)=O)cc2)nn1C(=O)c1c(F)cccc1F | 42.8 |
| CC#CC(=O)Nc1cc2c(Nc3ccc(F)c(Cl)c3)ncnc2cn1 | 100 |
| NC(=O)c1ccc(N(C(N)=O)c2c(F)cccc2F)nc1-c1ccc(F)cc1F | 102 |
| CC(=O)c1ccc(N2CCOCC2)cc1O | 92.1 |
| O=C1Cc2c([nH]c3ccc([N+](=O)[O-])cc23)-c2ccccc2N1 | 86.1 |
| Cc1cncc2cccc(S(=O)(=O)N3CCCN(C(=O)CN)C[C@@H]3C)c12 | 102 |

Series 3 — action: inhibitor; concentration: concentration not given; with: with ssDNA
Target: DNA polymerase theta, helicase domain (POLQ, Homo sapiens, UniProt O75417)
UniProt O75417, sequence (whole entry, looked up): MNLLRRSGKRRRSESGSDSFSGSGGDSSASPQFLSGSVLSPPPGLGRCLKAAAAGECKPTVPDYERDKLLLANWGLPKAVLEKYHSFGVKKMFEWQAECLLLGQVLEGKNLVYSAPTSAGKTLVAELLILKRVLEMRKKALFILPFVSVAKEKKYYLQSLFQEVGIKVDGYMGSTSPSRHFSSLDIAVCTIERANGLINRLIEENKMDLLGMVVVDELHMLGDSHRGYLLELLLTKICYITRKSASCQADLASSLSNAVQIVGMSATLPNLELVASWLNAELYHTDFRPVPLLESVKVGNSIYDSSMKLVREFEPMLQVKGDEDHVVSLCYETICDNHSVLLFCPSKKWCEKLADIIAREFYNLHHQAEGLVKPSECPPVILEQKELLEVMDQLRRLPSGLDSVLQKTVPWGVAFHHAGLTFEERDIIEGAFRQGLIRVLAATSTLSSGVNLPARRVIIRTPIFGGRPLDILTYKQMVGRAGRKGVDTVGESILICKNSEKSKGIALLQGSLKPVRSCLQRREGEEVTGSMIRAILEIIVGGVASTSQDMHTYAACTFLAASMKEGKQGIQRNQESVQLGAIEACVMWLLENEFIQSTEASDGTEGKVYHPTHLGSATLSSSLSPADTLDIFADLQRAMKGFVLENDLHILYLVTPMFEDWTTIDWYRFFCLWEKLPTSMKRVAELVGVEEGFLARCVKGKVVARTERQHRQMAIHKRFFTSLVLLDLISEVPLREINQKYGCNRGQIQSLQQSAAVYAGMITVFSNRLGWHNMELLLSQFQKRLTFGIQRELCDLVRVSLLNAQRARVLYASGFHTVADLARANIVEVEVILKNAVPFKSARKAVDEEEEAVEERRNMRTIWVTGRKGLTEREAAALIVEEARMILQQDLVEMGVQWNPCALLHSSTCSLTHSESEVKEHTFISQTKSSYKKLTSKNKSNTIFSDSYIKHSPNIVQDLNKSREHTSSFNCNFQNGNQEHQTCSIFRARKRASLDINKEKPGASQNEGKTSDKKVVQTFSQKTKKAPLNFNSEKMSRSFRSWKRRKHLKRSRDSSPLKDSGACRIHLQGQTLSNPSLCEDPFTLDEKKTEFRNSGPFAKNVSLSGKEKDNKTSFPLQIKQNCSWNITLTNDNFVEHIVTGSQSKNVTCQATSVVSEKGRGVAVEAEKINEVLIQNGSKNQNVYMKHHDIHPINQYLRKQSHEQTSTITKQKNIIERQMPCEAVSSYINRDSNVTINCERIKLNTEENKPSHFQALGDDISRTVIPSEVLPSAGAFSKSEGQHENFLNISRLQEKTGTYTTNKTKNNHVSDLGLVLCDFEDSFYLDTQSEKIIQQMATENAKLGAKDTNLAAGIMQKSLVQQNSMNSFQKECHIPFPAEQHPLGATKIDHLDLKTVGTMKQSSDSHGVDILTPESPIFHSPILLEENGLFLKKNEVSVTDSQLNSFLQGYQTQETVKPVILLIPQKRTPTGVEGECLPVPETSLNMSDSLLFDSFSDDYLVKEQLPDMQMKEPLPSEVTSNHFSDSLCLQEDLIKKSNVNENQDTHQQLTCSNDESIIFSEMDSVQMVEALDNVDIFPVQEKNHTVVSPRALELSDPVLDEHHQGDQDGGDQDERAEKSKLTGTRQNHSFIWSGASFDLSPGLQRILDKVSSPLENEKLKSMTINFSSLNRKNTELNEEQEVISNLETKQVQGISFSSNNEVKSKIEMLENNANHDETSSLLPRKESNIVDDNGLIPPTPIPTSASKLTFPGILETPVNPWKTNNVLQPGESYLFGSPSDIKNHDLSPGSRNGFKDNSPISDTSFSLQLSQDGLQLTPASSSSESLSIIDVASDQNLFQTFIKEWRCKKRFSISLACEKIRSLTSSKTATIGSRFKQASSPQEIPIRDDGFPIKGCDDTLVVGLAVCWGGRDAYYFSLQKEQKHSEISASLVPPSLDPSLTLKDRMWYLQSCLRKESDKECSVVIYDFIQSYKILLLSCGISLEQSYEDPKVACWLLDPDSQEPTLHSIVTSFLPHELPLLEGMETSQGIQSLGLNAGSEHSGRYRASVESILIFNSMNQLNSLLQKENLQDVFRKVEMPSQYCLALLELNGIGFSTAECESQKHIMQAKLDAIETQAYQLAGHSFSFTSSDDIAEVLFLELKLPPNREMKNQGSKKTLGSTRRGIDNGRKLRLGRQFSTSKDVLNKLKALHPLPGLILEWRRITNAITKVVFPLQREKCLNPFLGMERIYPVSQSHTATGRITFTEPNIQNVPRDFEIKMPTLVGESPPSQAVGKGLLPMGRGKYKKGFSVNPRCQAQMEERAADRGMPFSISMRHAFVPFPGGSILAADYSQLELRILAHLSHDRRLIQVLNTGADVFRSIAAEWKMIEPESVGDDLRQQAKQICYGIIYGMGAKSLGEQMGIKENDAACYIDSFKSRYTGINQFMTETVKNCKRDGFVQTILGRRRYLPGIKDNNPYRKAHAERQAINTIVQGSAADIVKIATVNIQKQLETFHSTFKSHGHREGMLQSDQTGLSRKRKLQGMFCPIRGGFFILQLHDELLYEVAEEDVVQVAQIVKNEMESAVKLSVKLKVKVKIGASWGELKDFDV
| SMILES | remaining activity |
| --- | --- |
| Cc1noc(C)c1S(=O)(=O)Nc1ccc(C(=O)Nc2ccc(Br)cc2)cc1 | 56.5% and 56.2% |
| CCOc1ccc2nc3cc(N)ccc3c(N)c2c1 | 33.7% and 32.7% |
| O=C(Nc1ccccc1F)c1ccc2c(Cl)c3c(nc2c1)CCC3 | 82.3% and 77.7% |
| CCOc1nc2cccc(C(=O)OCc3oc(=O)oc3C)c2n1Cc1ccc(-c2ccccc2-c2noc(=O)[nH]2)cc1 | 42.6% and 41.8% |

Series 4 — effect on: binding; technique: thermal shift; concentration: 10 µM; direction: higher = stronger binding
SMILES: Oc1ccc(-c2nc(-c3ccncc3)c(-c3ccc(F)cc3)[nH]2)cc1
| target | delta Tm |
| --- | --- |
| Bromodomain and PHD finger-containing protein 3 (BRPF3, Homo sapiens, UniProt Q9ULD4) | 0.96 ± 0.11 °C |
| SP140L, PHD-bromodomain (Homo sapiens, UniProt Q9H930) | 0.28 ± 0.09 °C |
| Transcription intermediary factor 1-alpha, PHD-bromodomain (TRIM24, Homo sapiens, UniProt O15164) | -0.35 ± 0.2 °C |
| Peregrin, isoform A (BRPF1, Homo sapiens, UniProt P55201) | -1.22 ± 0.13 °C |
| Protein polybromo-1, BD4 (PBRM1, Homo sapiens, UniProt Q86U86) | 0.78 ± 0.09 °C |

For quick reference, copied from above (series 2):
| Compound | remaining activity [%] |
| --- | --- |
| CC[n+]1c(/C=C/N(C)c2ccccc2)n(-c2ccccc2)c2ccc(-c3nc4ccccc4s3)cc21 | 97.8 |
| COc1cc(Nc2c(C#N)cnc3cc(OCCCN4CCN(C)CC4)c(OC)cc23)c(Cl)cc1Cl | 69.2 |
| O=C1NC(=O)C(c2c[nH]c3ccccc23)=C1c1c[nH]c2ccccc12 | 90.7 |
| CCCC(=O)Oc1ccc2[nH]c(C(=O)c3cc4ccccc4[nH]3)cc2c1 | 89.8 |
| Cc1cc(Nc2nc(-c3ccccc3)nc3ccccc23)n[nH]1 | 4.37 |
